Measured values pooled from the literature.
Numbered parts are unrelated; each lists some results of a single study. “And” joins repeats or separate records; there may be more than shown.

Study 1 — mode: antagonist
Target: Beta-1 adrenergic receptor (ADRB1, Homo sapiens, UniProt P08588)
Sequence of UniProt P08588 (whole entry, looked up): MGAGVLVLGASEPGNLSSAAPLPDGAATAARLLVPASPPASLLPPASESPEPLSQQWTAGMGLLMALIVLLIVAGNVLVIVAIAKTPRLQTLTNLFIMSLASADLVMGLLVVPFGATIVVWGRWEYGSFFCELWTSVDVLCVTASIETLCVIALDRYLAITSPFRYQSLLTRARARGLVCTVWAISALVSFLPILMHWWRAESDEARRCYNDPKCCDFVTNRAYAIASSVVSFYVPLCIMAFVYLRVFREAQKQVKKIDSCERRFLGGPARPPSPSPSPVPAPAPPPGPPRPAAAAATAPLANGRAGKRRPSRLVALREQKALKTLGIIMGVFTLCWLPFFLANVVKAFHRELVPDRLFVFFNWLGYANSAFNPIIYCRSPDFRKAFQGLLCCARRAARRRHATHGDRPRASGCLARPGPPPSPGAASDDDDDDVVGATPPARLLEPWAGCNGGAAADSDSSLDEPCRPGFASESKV
Compound | IC50
COc1ccc2[nH]cc(C3=CCN(CC(=O)N(C)Cc4ccccc4)CC3)c2c1 | ≥ 100 µM
CN1CCN(c2ccc3ccccc3n2)CC1 | ≥ 100 µM
C[C@@H]([C@H](O)c1ccccc1)N(C)C | ≥ 100 µM
C[C@H](Cc1ccc(OCC(=O)O)cc1)NC[C@H](O)c1cccc(Cl)c1 | ≥ 100 µM
CN(C)CCc1ccc(O)cc1 | ≥ 100 µM
CCCNC(C)Cc1ccc2c(c1)OCO2 (centres unmarked) | ≥ 100 µM
FC(F)(F)c1cccc(C2=CCN(CCc3ccc4ccccc4c3)CC2)c1 | ≥ 100 µM

Study 2 — effect on: enzyme activity; mode: inhibitor; concentration: 10 µM
Target: Calcium/calmodulin-dependent protein kinase type II subunit alpha (CAMK2A, Homo sapiens, UniProt Q9UQM7)
Sequence of UniProt Q9UQM7 (whole entry, looked up): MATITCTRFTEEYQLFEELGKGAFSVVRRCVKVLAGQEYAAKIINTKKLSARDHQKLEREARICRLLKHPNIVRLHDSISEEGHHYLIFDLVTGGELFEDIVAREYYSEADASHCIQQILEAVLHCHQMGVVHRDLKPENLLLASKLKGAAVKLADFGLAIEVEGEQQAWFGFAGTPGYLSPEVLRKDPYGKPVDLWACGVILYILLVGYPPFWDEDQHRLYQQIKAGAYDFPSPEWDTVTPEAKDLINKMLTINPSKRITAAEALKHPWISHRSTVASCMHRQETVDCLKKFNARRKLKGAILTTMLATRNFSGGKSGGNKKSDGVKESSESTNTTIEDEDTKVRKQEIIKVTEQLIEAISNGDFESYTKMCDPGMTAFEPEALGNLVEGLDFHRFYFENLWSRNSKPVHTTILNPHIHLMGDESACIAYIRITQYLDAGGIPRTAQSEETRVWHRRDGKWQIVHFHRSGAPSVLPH
Structure (SMILES) | inhibition
COc1cc2c(cc1O)[C@@H]1Cc3ccc(OC)c(OC)c3CN1CC2 | -16%
CCCCCCCCCCCCCC(=O)OC[C@H](COP(=O)(O)OCCN)OC(=O)CCCCCCCCCCCCC | -11%
CCCCC(CC)COC(=O)c1ccccc1C(=O)OCC(CC)CCCC (centres unmarked) | 17%
NC[C@H](CC(=O)O)c1ccc(Cl)cc1 | -1%
CCC1=C[C@@H]2[C@H](C1)C[C@]2(CN)CC(=O)O | -6%
CC1=C2C(=O)[C@H]3[C@@H](CC=C4C[C@@H](O)CC[C@@]43C)[C@@H]2CC[C@]12O[C@@H]1C[C@H](C)CN[C@H]1[C@H]2C | -23%
C=C(C)[C@@H]1CC=C(C=O)CC1 | -33%
N#Cc1nn(-c2c(Cl)cc(C(F)(F)F)cc2Cl)c(N)c1[S+]([O-])C(F)(F)F (centres unmarked) | -9%
C=CC[C@]1(O)CC[C@H]2[C@@H]3CCC4=CCCC[C@@H]4[C@H]3CC[C@@]21C | -8%
CC(C)N(CCNC(=O)CN1CCCC1=O)C(C)C | -2%

Study 3 — organism: Cryptosporidium parvum; host: neonatal calves; dose: dose not given; reading: direction not given
Structure (SMILES): CNC(=O)c1ccc(-c2cnn3ccc(C(=O)N(C)c4ccc(Cl)c(C(=O)OC)c4)cc23)cc1
setting | fecal consistency score
day 7 post-treatment | 1 and 2
day 0 post-treatment | 3
day 14 post-treatment | 1
day 5, second reading | 1 and 2
day 9 post-treatment | 1 and 2

Study 4 — organism: Plasmodium berghei; mode: inhibitor; cells: Huh-7; strain: GFP-expressing sporozoites, liver stage; concentration: 10 µM; time: 24 h; baseline: untreated control
SMILES | infection rate
Cc1cc(O)ccc1Cl | 116%
NCC(CC(=O)O)c1ccc(Cl)cc1 (centres unmarked) | 92.2%
COP(=O)(OC)OC=C(Cl)Cl | 84.3%
Cc1cccc(C)c1NC1=NCCCS1 | 4.66%
CC(C)N(CCC(C(N)=O)(c1ccccc1)c1ccccn1)C(C)C (centres unmarked) | 111%
C=CC[C@]1(O)CC[C@H]2[C@@H]3CCC4=CC(=O)CCC4=C3C=C[C@@]21C | 71.5%
CC(NC(C)(C)C)C(=O)c1cccc(Cl)c1 (centres unmarked) | 92.7%
